Results gathered from unrelated publications.
Compare with care: the assays were run in different laboratories. ± gives the spread as reported. In brackets after ≈: the same amount, converted by molar mass.

SMILES	tested on	test	test system	conditions	scale	quantity	value
Cc1ccc(/C=N/N=C(\S)Nc2cccc(S(=O)(=O)N(C)C)c2)o1	Mus musculus	gene silencing, high-content imaging	LDR reporter GFP cells	confirmation, mean of two runs	–	EC50	14.1 µM
CC[n+]1cccc2cc(/C=N/NC(=O)c3cccc(C(=O)N/N=C/c4ccc5c(ccc[n+]5CC)c4)c3)ccc21	hp2 hairpin duplex DNA	FRET melting	–	1 µM, with: ds26 10 µM	–	ΔTm	0.8 ± 0.1 °C
C=C(NC(=O)c1csc(-c2nc3c(cc2O)-c2nc(cs2)C(=O)NC(C(C)O)C(=O)NC(=C(C)OC)c2nc(cs2)C(=O)NC2c4nc(cs4)C(=O)NC(COC(=O)c4c5c6c(cccc6n4O)COC(=O)C(OC4CC(C)(O)C(N(C)C)C(C)O4)C2OC5)c2nc-3cs2)n1)C(N)=O (stereo not shown)	Staphylococcus aureus	–	MRSA	10 isolates	–	MIC50	0.0156 µg/mL (≈ 0.0109 µM)
C=CC(=O)Nc1cccc(Cn2ncc3cnc(Nc4cnn(CCOC)c4)nc32)c1	PIK3CD human	binding, KINOMEscan	–	100 nM	lower = stronger binding	percent of control	62%
O=C(N/N=C/c1cc[n+](Cc2ccccc2)c2ccccc12)C(=O)N/N=C/c1cc[n+](Cc2ccccc2)c2ccccc12	hp2 hairpin duplex DNA	FRET melting	–	1 µM	–	ΔTm	1.5 ± 0.3 °C
COC1OC(C)C(OC2OC(C)C(OS(=O)(=O)O)C(OC3OC(C)C(OC4OC(C)C(OS(=O)(=O)O)C(OS(=O)(=O)O)C4O)C(OS(=O)(=O)O)C3O)C2O)C(OS(=O)(=O)O)C1O (stereo not shown)	–	–	human plasma	128 µg/mL	baseline: control	prothrombin time prolongation	1 fold
C[n+]1cc(/C=N/NC(=O)c2cc(C(=O)N/N=C/c3cc4ccccc4[n+](C)c3)ncn2)cc2ccccc21	hp2 hairpin duplex DNA	FRET melting	–	1 µM, with: ds26 10 µM	–	ΔTm	0.7 ± 0.2 °C
CNS(=O)(=O)Nc1nccc(Cc2c(C)c3ccc(Oc4ncccc4F)cc3oc2=O)c1F	SW1088	cell viability	–	7 days	–	IC50	0.0475 µM
O=C(N/N=C/c1cc[n+](CC2CC2)c2ccccc12)c1cccc(C(=O)N/N=C/c2cc[n+](CC3CC3)c3ccccc23)c1	MYC parallel G4 DNA	FRET melting	–	1 µM, DNA 0.2 µM, with: duplex DNA competitor 10 µM	–	ΔTm	6.2 ± 0.2 °C
COC1OC(C)C(OC2OC(C)C(OS(=O)(=O)O)C(OC3OC(C)C(OC4OC(C)C(OS(=O)(=O)O)C(OC5OC(C)C(OC6OC(C)C(OS(=O)(=O)O)C(OC7OC(C)C(OC8OC(C)C(OS(=O)(=O)O)C(OC9OC(C)C(OC%10OC(C)C(OS(=O)(=O)O)C(OC%11OC(C)C(OS(=O)(=O)O)C(OS(=O)(=O)O)C%11O)C%10O)C(OS(=O)(=O)O)C9O)C8O)C(OS(=O)(=O)O)C7O)C6O)C(OS(=O)(=O)O)C5O)C4O)C(OS(=O)(=O)O)C3O)C2O)C(OS(=O)(=O)O)C1O (stereo not shown)	–	–	human plasma	128 µg/mL	baseline: control	prothrombin time prolongation	0.98 fold
Nc1ncc(-c2cc(-c3cnn(CC(F)(F)F)c3)ncc2F)nc1C(=O)NC1CNCC(F)C1 (stereo not shown)	YANK1	KINOMEscan	–	1 µM	baseline: DMSO control	remaining binding	100%
COc1ccc(NC(=O)CSc2nc3c(oc4ccccc43)c(=O)n2Cc2ccco2)cc1Cl	Mus musculus	gene silencing, high-content imaging	LDR reporter GFP cells	30 h, retest run 1	–	Emax	51%
O=C(N/N=C/c1ccc2c(ccc[n+]2Cc2ccccc2)c1)c1ccc2ccc3ccc(C(=O)N/N=C/c4ccc5c(ccc[n+]5Cc5ccccc5)c4)nc3c2n1	hp2 hairpin duplex DNA	FRET melting	–	1 µM, with: ds26 10 µM	–	ΔTm	0.5 ± 0.4 °C
Cc1ncsc1-c1ccc(C(C)NC(=O)C2CC(O)CN2C(=O)C(NC(=O)CCCCCCCCCCN2CCCC(Nc3ncc(Cl)c(Nc4ccccc4S(=O)(=O)C(C)C)n3)C2)C(C)(C)C)cc1 (stereo not shown)	22Rv1	RNA-seq, measured: ZNF490 mRNA	–	concentration not given	baseline: DMSO	log2 fold change	-1.71
N=C(S)N/N=C/c1ncc(C(F)(F)F)cc1Cl	Mus musculus	gene silencing, high-content imaging	LDR reporter GFP cells	30 h, retest, mean of two runs	–	Emax	87%
COC1CN([C@H]2CC[C@H]([C@@]3(C)Oc4c(Cl)cc(C(=O)NCc5c(SC)cc(C)[nH]c5=O)c(C)c4O3)CC2)C1	–	RNA-seq, measured: mouse JHY homolog	mouse, HT-1376 xenograft, whole blood	dose not given, PRC2 target gene	baseline: vehicle	log2 fold change	1.76

Excerpt of the above:
SMILES	tested on	test	test system	conditions	scale	quantity	value
O=C(N/N=C/c1cc[n+](Cc2ccccc2)c2ccccc12)C(=O)N/N=C/c1cc[n+](Cc2ccccc2)c2ccccc12	hp2 hairpin duplex DNA	FRET melting	–	1 µM	–	ΔTm	1.5 ± 0.3 °C
